Measurements from different studies.
Compare with care: the assays were run in different laboratories.
Cell line: SF-295

The growth percent of `CCCCN1CCN(c2ccc3[nH]c(-c4ccc5[nH]c(-c6ccc(C(F)(F)F)cc6)nc5c4)nc3c2)CC1` is reported as -84% (SRB; 10 µM, 48 h).
For `O=C1NC(=NCc2cccs2)S/C1=C\c1ccc2ncccc2c1`, the IC50 was greater than 10 µM (MTS; NCI60 panel).
`C#C[C@@]1(O)[C@@H](CO)O[C@@H](n2ccc3c(N)ncnc32)[C@@H]1O` gave a TGI of 5.33 µM (SRB; NCI-60 screen).
With `O=C(Nc1nnc2[nH]c(=S)[nH]c(-c3ccc(Cl)cc3)c1-2)c1ccccc1` the cell growth was 102% (SRB; 10 µM, NCI60 single-dose screen; baseline: untreated).
`CCOc1ccc(-c2nc3cc(-c4nc5cc(N6CCN(C)CC6)ccc5[nH]4)ccc3[nH]2)cc1OCC` gave a growth percent of 27.1% (SRB; 10 µM, 48 h).
For `O=C(Nc1nnc2n3c(nc(-c4ccc(Cl)cc4)c1-2)SCC3=O)c1ccccc1`, the cell growth was 91.9% (SRB; 10 µM, NCI60 single-dose screen; baseline: untreated).
With `CCCCN1CCN(c2ccc3[nH]c(-c4ccc5[nH]c(-c6ccc(OCC)cc6)nc5c4)nc3c2)CC1` the growth percent was 48.7% (SRB; 10 µM, 48 h).
With `Cn1cncc1C1=CN(c2ncnc3[nH]cnc23)CCS1` the GI50 was 22.4 µM (CNS cancer).
`C#C[C@@]1(O)[C@@H](CO)O[C@@H](n2cc(F)c3c(N)ncnc32)[C@@H]1O` has a TGI of 2.33 µM (SRB; NCI-60 screen).
The cell growth of `Cc1cc(=O)[nH]n1-c1nc(-c2ccc(Cl)cc2)c2c(NC(=O)c3ccccc3)nnc-2[nH]1` is reported as 94.5% (SRB; 10 µM, NCI60 single-dose screen; baseline: untreated).
`CCCCN1CCN(c2ccc3nc(-c4ccc5nc(-c6cc(OC)ccc6OC)[nH]c5c4)[nH]c3c2)CC1` has a growth percent of 98.6% (SRB; 10 µM, 48 h).
With `NNc1nc(-c2ccc(Cl)cc2)c2c(NC(=O)c3ccccc3)nnc-2[nH]1` the cell growth was 103% (SRB; 10 µM, NCI60 single-dose screen; baseline: untreated).
The log10 TGI of `Cc1cc(C)n(C(=S)[S][Au][PH](CCCCCC[PH]([Au][S]C(=S)n2nc(C)cc2C)(c2ccccc2)c2ccccc2)(c2ccccc2)c2ccccc2)n1` is reported as -5.11 (cell growth, NCI-60 screen; CNS cancer).

Excerpt of the above:
With `NNc1nc(-c2ccc(Cl)cc2)c2c(NC(=O)c3ccccc3)nnc-2[nH]1` the cell growth was 103% (SRB; 10 µM, NCI60 single-dose screen; baseline: untreated).
